Results collected from several papers.
Protocols differ between the studies behind these lines. ± marks the error that the study gave.

For `COc1cc2c(Oc3ccc4[nH]c(C)cc4c3F)ccnc2cc1OCC1(N)CC1`, the Proteinuria incidence was 25% (paediatric refractory sarcoma patients; 8 mg).
`CCCCCCCCCCCCCCCC(=O)N[C@@H](CCC(=O)NCCCC[C@H](NC(=O)[C@H](CC(=O)O)NC(=O)[C@H](CO)NC(=O)[C@@H](NC(=O)[C@H](Cc1ccccc1)NC(=O)[C@@H](NC(=O)CNC(=O)[C@H](CCC(N)=O)NC(=O)[C@H](CO)NC(=O)[C@@H](N)Cc1c[nH]cn1)[C@@H](C)O)[C@@H](C)O)C(=O)N[C@@H](CO)C(=O)N[C@@H](CCC(=O)O)C(=O)N[C@@H](Cc1ccc(O)cc1)C(=O)N[C@@H](CC(C)C)C(=O)N[C@@H](CC(=O)O)C(=O)N[C@@H](CO)C(=O)N[C@@H](CCC(=O)O)C(=O)N[C@@H](CCCNC(=N)N)C(=O)N[C@@H](C)C(=O)N[C@@H](CCCNC(=N)N)C(=O)N[C@@H](CC(=O)O)C(=O)N[C@@H](Cc1ccccc1)C(=O)N[C@H](C(=O)N[C@@H](C)C(=O)N[C@@H](Cc1c[nH]c2ccccc12)C(=O)N[C@@H](CC(C)C)C(=O)N[C@@H](CCC(=O)O)C(=O)N[C@@H](C)C(=O)NCC(=O)NCC(=O)O)C(C)C)C(=O)O` — result for “treatment-related adverse events”: 0% (measured: decreased appetite; human, CrCl ≥90 mL/min; subcutaneous, 100 µg single dose).
For `C[C@]1(CO)Cc2ncn(-c3ccc(C#N)c(Cl)c3)c2C(=O)O1`, “subjects with drug-related urine abnormality” read 11.1% (human; 3 mg multiple doses, fasted).
`CCC[C@@](N)(CO)CCc1ccc(OCCCCCC(C)C)cc1` gave a Tmax of 3 h (dog, male hounds, plasma; oral capsule, 5 mg/kg, median).
`COc1ccc([C@@H](O)c2cc(-c3ncnc4cc(N5CCOCC5)ccc34)c(F)cc2Cl)nn1` gave a hypotension incidence of 1% (patients, advanced solid tumours; oral, 200 mg twice daily, treatment-emergent, together with: avelumab).
`CC(C)CC(=O)OC[C@H]1O[C@@](C#N)(c2ccc3c(N)ncnn23)[C@H](O)[C@@H]1O` has a remaining compound of 0.012 ± 0.003% (Mice plasma; 5 µM, 15 min).
For `NC(=O)[C@H]1CCN(c2ncnc(N)c2F)C[C@@H]1N1CCC[C@@H](Nc2cc(Cl)cc(C(F)(F)F)c2)C1=O`, “grade ≥3 thrombocytopenia” read 0% (B-cell malignancy patients; oral, 246 mg twice daily, dose).
The dysgeusia incidence of `CO[C@H]1C[C@@H]2CC[C@@H](C)[C@@](O)(O2)C(=O)C(=O)N2CCCC[C@H]2C(=O)O[C@H]([C@H](C)C[C@@H]2CC[C@@H](OC(=O)NCCOCCOCCOCCOCCOCCOCCOCCOCCC(=O)N3CCc4cc(Cn5nc(-c6ccc7oc(N)nc7c6)c6c(N)ncnc65)ccc4C3)[C@H](OC)C2)C[C@@H](O)[C@H](C)/C=C(\C)[C@@H](O)[C@@H](OC)C(=O)[C@H](C)C[C@H](C)/C=C/C=C/C=C/1C` is reported as 50% (patients with advanced solid tumours; intravenous, 16 mg weekly, any grade).
`CC(C)C[C@H](NC(=O)[C@H](CCCCN)NC(=O)OCC1c2ccccc2-c2ccccc21)C(=O)N[C@H](C(=O)N[C@@H](Cc1ccccc1)C(=O)N[C@@H](Cc1ccccc1)C(=O)N[C@@H](CCCCN)C(=O)NCC(=O)N[C@@H](Cc1ccccc1)C(=O)N[C@@H](C)C(=O)N[C@@H](Cc1c[nH]c2ccccc12)C(=O)N[C@@H](CC(N)=O)C(=O)N[C@H](C(=O)N[C@H]1CSSC[C@@H](C(=O)N[C@@H](Cc2c[nH]cn2)C(=O)N[C@@H](CCCNC(=N)N)C(=O)N[C@@H](CCCNC(=N)N)C(=O)N[C@@H](C)C(=O)N[C@@H](CC(N)=O)C(N)=O)NC(=O)[C@H](C(C)C)NC(=O)[C@H](CCCNC(=N)N)NC(=O)[C@H](C(C)C)NC(=O)CNC(=O)[C@H](CC(N)=O)NC(=O)[C@H](CCCNC(=N)N)NC(=O)[C@H](Cc2ccc(O)cc2)NC(=O)[C@H](C(C)C)NC1=O)C(C)C)C(C)C` gave a lachrymation score of 0 (ICR mouse; ip, 5 mg/kg; direction not given).
`CN1CC[C@@H](c2c(O)cc(O)c3c(=O)cc(-c4ccc(C(F)(F)F)cc4Cl)oc23)[C@@H]1CO` — result for “patients with adverse event”: 50% (measured: Epistaxis; AML; oral, 150 mg, intermittent dosing).
`COc1ccnc(C(=O)N[C@H]2COC(=O)[C@H](Cc3ccccc3)[C@@H](OC(=O)C(C)C)[C@H](C)OC2=O)c1OCOC(=O)C(C)C`: “Freundlich coefficient KF” 148 mL/g (soil adsorption; clay soil; pH 7.6, organic carbon 1.7 %).
`O=C(Nc1ccccc1)C1CCN(C(=O)Oc2cccnc2)CC1`: “change in well-coordinated–clumsy score” -1.6 (Bond-Lader VAS; healthy women; 60 mg; baseline: pre-dose baseline, direction not given).
`CCCSc1ccc2nc(NC(=O)OC)[nH]c2c1`: “platelet distribution width” 15.7% (mouse, blood; oral, 50 mg/kg, tolerability, mean).
For `CCN1[C@@H](C(=O)NC23CCC(C(=O)O)(CC2)CC3)[C@H](c2cccc(Cl)c2F)[C@]2(C(=O)Nc3cc(Cl)ccc32)C12CCCCC2`, the Leukopenia incidence was 57.1% (patients with advanced solid tumours; oral, dose not given, all doses).
